Published values pooled from the literature.
Compare with care: the assays were run in different laboratories.

For `Cc1noc(C)c1-c1cc(C(O)(c2ccccn2)c2ccccn2)c2nc(C3CC3)[nH]c2c1`, the AUC(0-tau) was 765 ng·h/mL (human patients, fasted, plasma; oral, 3 mg once daily, cycle 1 day 15, added: enzalutamide once daily).
`CCCCOCCOc1ccc(-c2ccc3c(c2)/C=C(/C(=O)Nc2ccc([S@@+]([O-])Cc4cncn4CCC)cc2)CCCN3CC(C)C)cc1` gave an AUC(0-tau) of 5670 ng·h/mL (human, mild impairment matched controls, plasma; oral, 150 mg, day 1, geometric mean).
With `COC[C@@H](c1ccc(C(F)(F)F)cc1)N1CCN(C2(C)CCN(C(=O)c3c(C)ncnc3C)CC2)C[C@@H]1C` the AUC(0-tau) was 2500 ng·h/mL (human; oral, 10 mg once daily, steady state, population PK, added: ritonavir).
`Cl.[2H]C([2H])([2H])CC(=O)c1cnc(NC(=O)C2CC2)cc1Nc1cccc(-c2ncn(C([2H])([2H])[2H])n2)c1OC` has an AUC(0-tau) of 1210 ng·h/mL (human, fed, multiple dose; oral, 30 mg twice daily, tablet, day 1, geometric mean).
`N#CCNC(=O)c1ccc(-c2ccnc(Nc3ccc(N4CCOCC4)cc3)n2)cc1` gave an AUC(0-tau) of 1660 ng·h/mL (healthy human volunteers, plasma; oral, 100 mg once daily, day 7, fed, given alone).
For `O=C(O)CCC(=O)O.[2H]C([2H])([2H])Oc1cc(C)c2[nH]ccc2c1CN1CC[C@@H](C2CC2)C[C@H]1c1ccc(C(=O)O)cc1`, the AUC(0-tau) was 51900 ng·h/mL (human, plasma; 300 mg once daily, day 1, multiple ascending dose, geometric mean).
The AUC(0-tau) of `Nc1c2c(cc3c1CCC3)CCC2` is reported as 200 ng·h/mL (human, plasma; oral, 300 mg twice daily of GDC-2394, day 7, multiple ascending dose).
With `Nc1ncn([C@@H]2O[C@H](CO)[C@@H](O)[C@H]2O)c(=O)n1` the AUC(0-tau) was 1200 ng·h/mL (human; intravenous, 100 mg/m^2, cycle 1 day 1, given alone).
For `CCN1CCN(Cc2ccc(Nc3ncc(F)c(-c4cc(F)c5nc6n(c5c4)[C@H](C)CCC6)n3)nc2)CC1`, the AUC(0-tau) was 5630 ng·h/mL (human, plasma; 200 mg multiple dosing, mean).
The AUC(0-tau) of `Cc1ncnc2c1ccn2[C@@H]1C[C@H](Oc2cc(C(F)F)c(F)c3c2CNCC3)[C@@H](O)[C@H]1O` is reported as 281 ng·h/mL (human; oral, 6 mg twice daily).
With `CC(C)NC(=O)COc1cccc(-c2nc(Nc3ccc4[nH]ncc4c3)c3ccccc3n2)c1` the AUC(0-tau) was 12900 ng·h/mL (human male, plasma; oral, 200 mg once daily, day 13, fed, geometric mean, added: rosuvastatin).
`CN1CC[C@@H](NC(=O)Nc2ccc(C#N)cc2)C[C@@H]1c1nc2ccccc2[nH]1` has an AUC(0-tau) of 18100 ng·h/mL (human; oral, 100 mg once daily, induction cycle day 10, given alone).
With `Cc1cc(/C=C/C#N)cc(C)c1Nc1ccnc(Nc2ccc(C#N)cc2)n1` the AUC(0-tau) was 2300 ng·h/mL (human, normal renal function, plasma; oral, dose not given, steady state).
The AUC(0-tau) of `CC(=O)N1CCC(Nc2cc(C(=O)NC[C@H](O)CN3CCc4ccccc4C3)ncn2)CC1` is reported as 5830 ng·h/mL (human, plasma; oral, 300 mg, week 3 day 1, geometric mean).
The AUC(0-tau) of `Cc1cc(C)c(CNC(=O)c2cc(Cl)c3c(c2C)O[C@@](C)([C@H]2CC[C@H](N(C)C)CC2)O3)c(=O)[nH]1` is reported as 14200 ng·h/mL (human, NHL patients, plasma; oral, 200 mg/day, cycle 1 day 15, once daily).
`CCOc1c([C@H](C)n2nc(C)c3c(N)ncnc32)cc(Cl)c(F)c1[C@@H]1CNC(=O)C1` has an AUC(0-tau) of 17.9 µM·h (human Hodgkin lymphoma patients; oral, 20 mg, day 15).
